# Measured values from different studies.
# Numbered parts are unrelated; each lists some results of a single study. Positions count from the first letter of the parent shown.

# Series 1
# Target: ABI1, truncated, D143A, DHFR fusion (Arabidopsis thaliana)
# Technique: DHFR PCA, deep sequencing
# Sample: yeast
# Setting: methotrexate growth selection, single substitutions
# Together with: (+)-ABA 710 µM
# Reference: wild-type fitted maximum
# Direction: higher = stronger binding
# Starting sequence: PYL1, truncated, DHFR fusion (Arabidopsis thaliana); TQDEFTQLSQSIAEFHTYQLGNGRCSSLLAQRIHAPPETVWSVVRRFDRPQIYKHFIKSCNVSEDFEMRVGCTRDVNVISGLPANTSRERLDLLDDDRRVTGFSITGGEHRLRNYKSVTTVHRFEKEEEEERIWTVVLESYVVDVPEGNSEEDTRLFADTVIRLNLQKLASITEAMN
Variant,relative binding score
V143K,-5.62%
F5G,102%
N77W,98.4%
D144G,72.2%
E14C,96.5%
R111A,73.9%
L93S,90.5%
A170P,0.545%
V145K,79.2%
F157K,-5.28%
H110V,30%
G102C,75.5%
R49E,99.3%
V62T,111%
H55T,104%
F5A,100%
E125H,109%
S171F,93%
E67A,103%

# Series 2
# Target: UBE2E2 UBC core domain (UniProt Q96LR5)
# Sequence of UniProt Q96LR5 (whole entry, looked up): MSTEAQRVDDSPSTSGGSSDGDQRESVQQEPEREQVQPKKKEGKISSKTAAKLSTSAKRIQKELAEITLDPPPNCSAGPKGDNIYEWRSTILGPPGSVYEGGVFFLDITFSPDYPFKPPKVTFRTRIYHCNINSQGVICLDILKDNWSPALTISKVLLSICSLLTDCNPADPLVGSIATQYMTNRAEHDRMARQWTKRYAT
# Technique: yeast two-hybrid
# Sample: yeast
# Setting: mostly zero background
# Reference: not given
# Direction: higher = stronger interaction
# B1: TRIM69 RING domain (UniProt Q86WT6); chain VIQDITMELHCPLCNDWFRDPLMLSCGHNFCEACIQDFWRLQAKETFCPECKMLCQYNNCTF
# B2: UHRF2 RING domain (UniProt Q96PU4); chain CGGDPEKKCHSCSCRVCGGKHEPNMQLLCDECNVAYHIYCLNPPLDKVPEEEYWYCPSCKTDSSEVVKAGER
# B3: PHF21A RING domain (UniProt Q96BD5); chain SPTSTDGDIHEDFCSVCRKSGQLLMCDTCSRVYHLDCLDPPLKTIPKGMWICPRCQDQMLKKEEAIPW
# B4: MID1 RING domain (UniProt O15344); chain METLESELTCPICLELFEDPLLLPCAHSLCFNCAHRILVSHCATNESVESITAFQCPTCRHVITLSQRGL
Sequence,lacZ reporter activity
B1 (TRIM69 RING domain),0
RLTMMWEEVTCPICLDPFVEPVSIECGHSFCQECISQVGKGGGSVCPVCRQRFLLKNLRP (TRIM21 RING domain (UniProt P19474)),0
B2 (UHRF2 RING domain),0
QHHELTSLFECPVCFDYVLPPILQCQAGHLVCNQCRQKLSCCPTCRGALTPSIRNL (SIAH2 RING domain (UniProt O43255)),0
DAIPSLSECQCGICMEILVEPVTLPCNHTLCKPCFQSTVEKASLCCPFCRRRVSSWTRYH (RNF168 RING domain (UniProt Q8IYW5)),0
PEELQAMDNVCIICREEMVTGAKRLPCNHIFHTSCLRSWFQRQQTCPTCRMDVLRASLPA (SYVN1 RING domain (UniProt Q86TM6)),0
B3 (PHF21A RING domain),0
YWAMDSTFELCKICAESNKDVKIEPCGHLLCSCCLAAWQHSDSQTCPFCRCEIKGWEAVS (CBLC RING domain (UniProt Q9ULV8)),0
B4 (MID1 RING domain),0
QLQDIKEQTMCPVCLDRLKNMIFLCGHGTCQLCGDRMSECPICRKAIERRILLY (MIB1 RING domain (UniProt Q86YT6)),0
FASPPDSNFVCSVCHGVLKRPARLPCSHIFCKKCILRWLARQKTCPCCRKEVKRKKVVH (RNF151 RING domain (UniProt Q2KHN1)),0

# Series 3
# Target: Sal-like protein 4, full length isoform A (SALL4, Homo sapiens, UniProt Q9UJQ4, residues 1-1053)
# Sequence of UniProt Q9UJQ4 (whole entry, looked up): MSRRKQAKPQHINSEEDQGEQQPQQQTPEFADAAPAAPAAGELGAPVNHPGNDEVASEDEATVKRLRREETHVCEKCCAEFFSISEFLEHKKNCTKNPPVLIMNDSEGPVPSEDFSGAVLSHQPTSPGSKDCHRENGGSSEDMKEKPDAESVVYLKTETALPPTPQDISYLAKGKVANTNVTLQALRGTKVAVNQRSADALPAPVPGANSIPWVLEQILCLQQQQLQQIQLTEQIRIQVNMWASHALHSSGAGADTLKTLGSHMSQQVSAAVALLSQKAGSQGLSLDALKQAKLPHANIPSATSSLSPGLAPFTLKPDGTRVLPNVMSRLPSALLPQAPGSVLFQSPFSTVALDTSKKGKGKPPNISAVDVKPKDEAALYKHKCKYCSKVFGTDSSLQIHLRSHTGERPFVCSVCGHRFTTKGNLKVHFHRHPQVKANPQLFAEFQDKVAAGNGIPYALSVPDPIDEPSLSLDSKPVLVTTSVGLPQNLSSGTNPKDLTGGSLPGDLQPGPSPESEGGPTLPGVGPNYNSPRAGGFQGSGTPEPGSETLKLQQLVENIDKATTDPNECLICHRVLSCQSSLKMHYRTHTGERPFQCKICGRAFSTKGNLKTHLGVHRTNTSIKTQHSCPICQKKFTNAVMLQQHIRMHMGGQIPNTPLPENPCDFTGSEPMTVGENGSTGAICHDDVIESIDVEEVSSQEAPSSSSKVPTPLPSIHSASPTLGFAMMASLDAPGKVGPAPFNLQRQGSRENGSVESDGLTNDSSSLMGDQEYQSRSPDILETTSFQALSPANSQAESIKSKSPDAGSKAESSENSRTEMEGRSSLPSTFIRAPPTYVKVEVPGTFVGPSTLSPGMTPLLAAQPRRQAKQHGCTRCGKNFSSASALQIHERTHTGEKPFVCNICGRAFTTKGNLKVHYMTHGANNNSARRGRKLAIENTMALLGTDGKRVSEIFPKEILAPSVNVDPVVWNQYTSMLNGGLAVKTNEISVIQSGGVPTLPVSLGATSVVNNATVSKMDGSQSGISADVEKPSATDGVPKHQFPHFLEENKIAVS
# Technique: universal PBM
# Form: double-stranded DNA, one strand shown
# Sample: in vitro
# Tested at: 600 nM
# Setting: 8-mer, flanks averaged, mean of replicates
# Direction: higher = stronger binding
Oligonucleotide,E-score
AGTCCAGA,-0.0202
GTACCCAA,-0.189
GACGCTGA,-0.111
AAACACCT,-0.0291
AAAACATG,0.177
CTATTATC,0.334
CATAACTA,0.372
AGTAGAAA,0.176
ACCACCTG,-0.248
CCAAACCG,-0.319
ACCCTCCC,-0.1
CCGGAAGG,-0.199
AATGGAGG,-0.0838
TCTCACCA,0.0682
CTCCTTAA,0.0215
AGCGTGGA,-0.11
CCCTACCC,-0.192
CTAGTGTC,-0.0318

# Series 4
# Target: Histone acetyltransferase KAT6A, both winged helices, GST fusion (KAT6A, Homo sapiens, UniProt Q92794, residues 1-181)
# Technique: protein binding microarray
# Form: double-stranded DNA, one strand shown
# Sample: in vitro
# Tested at: not given
# Setting: 8-mer, flanks averaged, mean of 2 arrays, mostly near background
# Reference: not given
# Direction: higher = stronger binding
# Target sequence (chain): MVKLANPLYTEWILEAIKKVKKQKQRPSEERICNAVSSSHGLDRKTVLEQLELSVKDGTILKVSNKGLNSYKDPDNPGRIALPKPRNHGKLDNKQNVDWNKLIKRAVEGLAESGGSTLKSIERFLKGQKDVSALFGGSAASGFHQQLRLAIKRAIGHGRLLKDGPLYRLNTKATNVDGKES
Oligonucleotide,E-score
TTACGTAA,-0.21
AAGTGGCG,0.0191
TAACTCTA,-0.258
CACCAGGG,-0.239
AATTACCA,-0.0863
ACCACCGT,0.0587
CAAGATAA,-0.104
CCTCGCCA,-0.064
CGGGAGCA,0.133
AGCAATCC,-0.00898
CACGATAA,-0.0925
AACGACGG,0.235
GGTGTATA,-0.0809
CCGATAAA,0.0257
CTGTCGAA,-0.0471
CTACGCAG,0.00221
ACACGATA,0.0296
CCGGTCAA,0.199
ATGCCGAA,0.182
GGCAAGCA,-0.0808
AGGGCCCC,0.00687
CAACTCTG,-0.105

# Series 5
# Target: Hepatocyte nuclear factor 3-alpha (Foxa1, Mus musculus, UniProt P35582, residues 1-468, full length assumed)
# Sequence of UniProt P35582 (whole entry, looked up): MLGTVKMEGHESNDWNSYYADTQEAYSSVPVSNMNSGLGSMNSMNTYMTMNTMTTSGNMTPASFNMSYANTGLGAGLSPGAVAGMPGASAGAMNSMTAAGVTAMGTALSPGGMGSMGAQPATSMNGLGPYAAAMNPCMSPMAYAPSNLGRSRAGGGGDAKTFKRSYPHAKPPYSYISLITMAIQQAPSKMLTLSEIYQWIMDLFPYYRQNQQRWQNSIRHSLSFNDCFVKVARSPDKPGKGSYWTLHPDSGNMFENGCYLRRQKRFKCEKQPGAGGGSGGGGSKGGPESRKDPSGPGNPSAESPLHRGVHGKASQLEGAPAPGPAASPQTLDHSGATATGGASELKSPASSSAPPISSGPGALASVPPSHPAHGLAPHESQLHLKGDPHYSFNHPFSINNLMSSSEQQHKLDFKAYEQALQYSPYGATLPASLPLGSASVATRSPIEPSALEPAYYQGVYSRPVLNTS
# Technique: EMSA with sequencing
# Form: double-stranded DNA, one strand shown
# Sample: in vitro
# Tested at: 10 and 20 nM
# Setting: whole designed probe, mean of two concentrations, ends assumed
# Reference: negative control set to 0
# Direction: higher = stronger binding
# All sequences stand within: GTGAGCGGTGCCCATTGATGGGGAAC … TTTCACTGGGATCGTGGGGAC
Oligonucleotide,normalised bound fraction
ATCCACGAACCTGGCCCTGTCTGGTAACCACAGTGAACCATCGCAAGATACAGCACTATGTGCCCAGTTGGGCTGGTAATGTCACACAAATGTGTCAACACTGGCACATCCTCAGGGACACGGAAGTGTACTTGTTTTTGGAGAGGGACTAGACCTTCATCCTTGAGGTGAAGAAGATTTTCTCTCCAGGGTG,0.0654 ratio
ATAGCATCCTCCCATCAGCTTTGATACTTACTCTCTCAGGATCATGATTTGCTATTCTTTATAAGGATCATTTTTCTCATTATCAGTCAACATGTTTACATTGGAATAGATACACTCTTCTATTTCAGTTATAGTTAGTTGAGACATAATCTCACTTTAGAAACCTTAACTACATATGTTATAAAACCTGTAT,0.34 ratio
ATGATCCTCCCTTTCTTCAGCTGTCCAATGGGTTAATCATCCCAAGTCCCCCAGCCTTGATGACAATCCAGGGGGCTGGGGTATATCTGCCATAGATTGCCTTTCCCTTGCTTCTCTCTGAGTGATTGGCAGACAGCAGGCCTCTGAATGCCATCCTCCCCAGCATTCTTGGCAAGGCGGCTGAAACTCCAGC,-0.0671 ratio
AGCATTAACTCAAGCTGTTAGAATCAAGAATCCTAAGGAAAACAGATAGAAATAAATTACTGTATAAAATAGAAATGACTATATTGAAATAAGTAAACATGGAATAACTAAATATTTTTCAAATAAATTATTAGTGGGCCTATGAGGAAAATAAGGAAAAAGCAATATAAATAAAAAGCAAATAAATAAAACT,0.514 ratio
ATCTTCCCCCTCTTCCTTGCCCCACCAGCTCACCTACGGGGGTTATTTGCACAAAGGAAAATAAATAAAGCCGGCATTCGTTAACCCTCTTCACGCGCATACTGCTGTTTGCTCTGGATGAATCATGGTCCTTTGGCGAGGCGTGGCTCCGGGAGAGCAAAGCACCGTGTCAGGGCCATGATCCGGGCTCGCC,0.378 ratio
TTTCCAGCCCTTAGTTTCTGGCATTTAACCTGACTCTGGTCCCTGAATGGCATGGGAGCTGACTCATTCACAGGTTTCCACATTCATGCCACTTGTTTGCTTTTCTGTCACATTCTGATCTACAGAGATCTTTATTTGCTTTGTGTTTCCAATGGAGAAAGAGCTTGGGAAGGGAGGATCCTAATTGTCTAAA,0.515 ratio
CTTCTAGCCTCCAGAGCTATAGGACTATGAATTAGTATGGTTTTAAGTTACTAGGTTTGTACTAATTTGTCACAGCAGCAATAGGAAACTAAAGCAAACACCAGACCTAAGCTTCCTCCTGCCTCAGGTGGGATAATTCAGGCATGATGTGCATGGTTTCAGTGGGTTGGAGCCTCTGCTGCCCACTGCAGTA,0.198 ratio
GAAAAGTGCAAAGCGTTGGCATCTGGGTCCTTCGTGAAGCTGTGTGATTCTGGACTTTGGACTGTAGTCCACTGTAGCCTGCCTTCTCACTGTGTAATTTCATAACTACATGGGCTCCCGTGAGCTTGCCACACGCCACAGGCTATGCCTAATTCTACAAAGCCTGAAGGAAAAATACTGTGAAAAATACTTA,0.0158 ratio

# Series 6
# Target: CCNA2, cyclin fold, Cln2 fusion (human)
# Technique: yeast growth competition, sequencing
# Sample: yeast
# Setting: strong parent motif
# Reference: not given
# Direction: higher = stronger binding
# Starting sequence: MICAL3 docking peptide (human); LQLRRQLSFSEDS; partner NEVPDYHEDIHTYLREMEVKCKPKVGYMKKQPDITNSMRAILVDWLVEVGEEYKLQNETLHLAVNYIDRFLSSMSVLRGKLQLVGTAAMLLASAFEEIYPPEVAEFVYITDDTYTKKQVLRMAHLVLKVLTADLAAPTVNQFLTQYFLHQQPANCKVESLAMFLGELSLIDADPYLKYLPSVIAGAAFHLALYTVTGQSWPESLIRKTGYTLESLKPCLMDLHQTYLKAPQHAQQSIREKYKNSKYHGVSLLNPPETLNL
Variant,normalised enrichment score
LQLRRQLSFVEDS [S10V],2.11
LQLRRQLSFSWDS [E11W],1.91
LQLRRQLSFSELS [D12L],3.43
LVLRRQLSFSEDS [Q2V],3.29
LQLRRQLPFSEDS [S8P],0.666
LQERRQLSFSEDS [L3E],0.138
LQLMRQLSFSEDS [R4M],0.222
LQWRRQLSFSEDS [L3W],3.94
LQLRRQLAFSEDS [S8A],1.62
LQLRRQLSFSERS [D12R],3.1
LQLRRQLSFSEHS [D12H],3.53
LQGRRQLSFSEDS [L3G],2.72
LQLRRQISFSEDS [L7I],1.35
LQLRRQLHFSEDS [S8H],3.53
LQLRRQLSESEDS [F9E],0.0499
LQLRRQLSFSGDS [E11G],3.47
LQLRRQLSFSEQS [D12Q],3.49
LQLKRQLSFSEDS [R4K],1.77
